Measurements pooled from the literature.
Compare with care: the assays were run in different laboratories. “And” joins repeats or separate records; there may be more than shown. ± marks the error that the study gave.

`O=C1c2ccccc2C(=O)N1CCCN1CCN(C(c2ccc(F)cc2)c2ccc(F)cc2)CC1` gave a terminal half-life of 8.48 ± 4.78 h (male Sprague-Dawley rat, whole blood; oral, 10 mg/kg).
With `O=C1c2ccncc2C(=O)c2c1[nH]c1ccccc21` the terminal half-life was 24.3 ± 21.4 h (Sprague-Dawley rat female, plasma; intravenous, 5 mg/kg).
`Cc1cc(-c2ccc3cc[nH]c(=O)c3c2)ccc1O[C@H]1O[C@H](CO)[C@@H](O)[C@H](O)[C@@H]1O` has a terminal half-life of 0.279 h and 0.284 h and 0.278 h (Sprague-Dawley rat, male, plasma; intravenous, 3 mg/kg).
`CCCc1c(-c2ccc(O)cc2)nn(-c2ccc(O)cc2)c1-c1ccc(O)cc1` gave a terminal half-life of 3.2 ± 0.9 h (measured: aglycone; rat, Long-Evans, female, ovariectomized, serum; subcutaneous, 2 mg/kg single dose).
`COc1cc2nccc(Oc3ccc(NC(=O)NC4CC4)c(Cl)c3)c2cc1C(N)=O` gave a terminal half-life of 3.79 ± 1.49 h (UPLC-MS/MS; Sprague-Dawley rat, male, plasma; oral, 10 mg/kg, 7 days, added: isavuconazole 20 mg/kg gavage).
`CNC(=O)c1cccc(-c2ccc(O[C@H]3O[C@H](CO)[C@@H](O)[C@H](O)[C@@H]3O)c(C)c2)c1` has a terminal half-life of 0.308 h and 0.301 h and 0.326 h (Sprague-Dawley rat, male, plasma; intravenous, 3 mg/kg).
With `CCc1c(-c2ccccc2)c(-c2ccccc2)nn1-c1ccccc1-c1cccc(OCC(=O)O)c1` the terminal half-life was 3.28 h and 2.95 h and 3 h (Sprague-Dawley rat; oral).
With `CNC(=O)c1cccc(-c2ccc([C@@H](O)[C@H]3O[C@H](CO)[C@@H](O)[C@H](O)[C@@H]3O)c(C)c2)c1` the terminal half-life was 0.488 h (male Sprague-Dawley rat, plasma; intravenous, 3 mg/kg, group mean).
Under “terminal elimination rate constant”, `CC[C@H](C)[C@H](NC(=O)[C@H](Cc1ccccc1)NC(=O)[C@H](CCC(=O)O)NC(=O)[C@H](CCCNC(=N)N)NC(=O)[C@H](C)NC(=O)[C@H](C)NC(=O)[C@H](CCC(N)=O)NC(=O)[C@H](CCC(=O)O)NC(=O)[C@H](CCC(=O)O)NC(=O)[C@H](CC(C)C)NC(=O)[C@H](Cc1ccc(O)cc1)NC(=O)[C@H](CO)NC(=O)[C@H](CO)NC(=O)[C@@H](NC(=O)[C@H](CC(=O)O)NC(=O)[C@H](CO)NC(=O)[C@@H](NC(=O)[C@H](Cc1ccccc1)NC(=O)[C@@H](NC(=O)CNC(=O)[C@H](CCC(=O)O)NC(=O)[C@H](C)NC(=O)CCc1c[nH]cn1)[C@@H](C)O)[C@@H](C)O)C(C)C)C(=O)N[C@@H](C)C(=O)N[C@@H](Cc1c[nH]c2ccccc12)C(=O)N[C@@H](CC(C)C)C(=O)N[C@H](C(=O)N[C@@H](CCCNC(=N)N)C(=O)NCC(=O)N[C@@H](CCCNC(=N)N)C(=O)N[C@@H](CCCCNC(=O)COCCOCCNC(=O)COCCOCCNC(=O)CC[C@H](NC(=O)CCCCCCCCCCCCCCCCC(=O)O)C(=O)O)C(=O)O)C(C)C` is recorded as 0.0532 h⁻¹ (UPLC-MS; rat, plasma; subcutaneous, 20 nmol/kg).
For `N#CC(Cc1ccc(O)cc1)c1ccc(O)cc1` (stereo not shown), the terminal half-life was 4.6 ± 1.6 h (measured: aglycone; rat, Long-Evans, female, ovariectomized, serum; subcutaneous, 2 mg/kg single dose).

Some of these lines once more:
`O=C1c2ccccc2C(=O)N1CCCN1CCN(C(c2ccc(F)cc2)c2ccc(F)cc2)CC1` gave a terminal half-life of 8.48 ± 4.78 h (male Sprague-Dawley rat, whole blood; oral, 10 mg/kg).
